Results of several laboratories.
Compare with care: the assays were run in different laboratories. ± marks the error that the study gave.
Chain of UniProt Q71U36 (whole entry, looked up): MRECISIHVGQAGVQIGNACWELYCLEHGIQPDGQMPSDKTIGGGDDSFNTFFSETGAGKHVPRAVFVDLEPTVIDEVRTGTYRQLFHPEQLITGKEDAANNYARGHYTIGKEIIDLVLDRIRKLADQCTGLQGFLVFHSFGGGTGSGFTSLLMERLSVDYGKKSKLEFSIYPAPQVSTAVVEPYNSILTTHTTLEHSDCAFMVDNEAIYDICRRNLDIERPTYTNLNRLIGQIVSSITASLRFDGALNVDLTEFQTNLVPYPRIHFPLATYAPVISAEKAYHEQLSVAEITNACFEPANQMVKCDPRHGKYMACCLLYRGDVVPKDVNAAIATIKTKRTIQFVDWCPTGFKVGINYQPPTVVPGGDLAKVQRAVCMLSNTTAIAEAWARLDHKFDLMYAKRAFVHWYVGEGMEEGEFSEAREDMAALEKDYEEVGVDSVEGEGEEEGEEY
Chain of UniProt Q15831 (whole entry, looked up): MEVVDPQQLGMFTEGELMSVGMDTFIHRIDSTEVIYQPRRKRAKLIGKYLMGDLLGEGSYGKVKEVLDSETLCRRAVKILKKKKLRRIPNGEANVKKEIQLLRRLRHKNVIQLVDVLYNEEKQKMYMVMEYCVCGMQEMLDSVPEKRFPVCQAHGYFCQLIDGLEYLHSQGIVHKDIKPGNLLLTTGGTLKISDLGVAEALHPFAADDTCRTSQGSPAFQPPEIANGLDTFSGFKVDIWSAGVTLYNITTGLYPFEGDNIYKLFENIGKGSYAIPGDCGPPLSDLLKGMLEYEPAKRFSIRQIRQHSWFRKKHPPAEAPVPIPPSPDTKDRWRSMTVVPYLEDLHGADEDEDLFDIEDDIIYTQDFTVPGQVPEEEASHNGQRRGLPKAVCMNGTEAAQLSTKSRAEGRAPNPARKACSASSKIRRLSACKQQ

CN1CCN(c2cc(-c3ccncc3)c(-c3ccc4ccccc4c3)nn2)CC1 — inhibition (S1PR1 (Homo sapiens, UniProt P21453); antagonist, FLIPR; 10 µM): 3.3%
COc1c(C)c2c(c(O)c1C/C=C(\C)CCC(=O)O)C(=O)OC2 — IC50 (JEG-3; cell proliferation): 162 nM
CC[C@H](C)[C@@H]1NC(=O)[C@@H]2CCCN2C(=O)[C@H](CC(C)C)NC(=O)[C@H](CC(C)C)NC(=O)CNC(=O)[C@@H](NC(=O)[C@@H](NC(=O)[C@H](CC(=O)O)NC(=O)CNC(=O)[C@@H](NC(=O)[C@H](C)NC(=O)CNC(=O)[C@H](CCCCN)NC(=O)[C@H](CC(C)C)NC(=O)[C@H](CC(C)C)NC(=O)[C@H](CCCCN)NC(=O)CNC(=O)[C@@H](NC(=O)[C@@H](N)CC(C)C)C(C)C)C(C)C)C(C)C)CSSC[C@@H](C(=O)O)NC1=O — log2 fold change (RNA-seq, measured: Fam174a; mouse, traumatic brain injury model, frontal cortex and hippocampus; dose not given; relative to: TBI alone): -0.497
Nc1ncnc2c1ncn2[C@@H]1O[C@@H]2COP(=O)(O)O[C@H]3[C@@H](O)[C@H](n4cnc5c(=O)[nH]cnc54)O[C@@H]3COP(=O)(O)O[C@H]2[C@H]1O — pathway fold enrichment (HFF-1; RNA sequencing, measured: Signal Transduction; upregulated pathway; relative to: Zika virus alone): 1.54
CC(C)N1CCC(NC2CCN(c3cccc(-c4cc5cc(F)ccc5[nH]4)c3)CC2)CC1 — CC50 (MDA-MB-435): 5500 nM
COc1ccc(N2C(=O)N(c3c(C)cccc3Cl)Cc3cnc(Nc4ccc(C5CCN(C)CC5)cc4OC)nc32)nc1 — inhibition (STK11 (Homo sapiens, UniProt Q15831); kinase activity, inhibitor; 0.5 µM, LKB1): 4%
Nc1ncc(-c2nc(N3CCOCC3)nc(N3CCOCC3)n2)c(C(F)F)n1 — GI50 (TT; 72 h): 331 nM
COc1c(CCC[P+](c2ccccc2)(c2ccccc2)c2ccccc2)cc2c(c1OC)OCO2.[I-] — GI50 (BT-549; SRB): -5.91 log M
C[C@@H](O)[C@@H](CO)NC(=O)[C@@H](CCCNC(=N)N)NC(=O)[C@@H]1CCCN1C(=O)[C@@H]1CSSC[C@H](NC(=O)[C@H](Cc2ccccc2)NC(=O)CN2CCN(CC(=O)O)CCN(CC(=O)O)CCN(CC(=O)O)CC2)C(=O)N[C@@H](Cc2ccc(O)cc2)C(=O)N[C@@H](Cc2ccccc2)C(=O)N[C@@H](CCC(N)=O)C(=O)N[C@@H](CC(N)=O)C(=O)N1 [gallium-68 labelled] — tissue uptake (Wistar rat, bone; intravenous, 8 MBq, 60 min, group mean): 0.27 %ID/g
COc1cc(CCC[P+](c2ccccc2)(c2ccccc2)c2ccccc2)c(OC)c2c1OCO2.[I-] — LC50 (SNB-19; SRB): -4.38 log M
CCCCC1(CCCC)CN(c2ccccc2)c2cc(SC)c(OCC(=O)N[C@@H](C(=O)NCC(=O)O)c3ccccc3)cc2S(=O)(=O)C1 — serum LDL-C (measured: LDL cholesterol; human, serum; 10 mg once daily, day 2): 111 mg/dL
CN1CCN(C2(CNC3CCN(c4cccc(-c5cc6cc(F)ccc6[nH]5)c4)CC3)CCC2)CC1 — GI50 (MDA-MB-435): 523 nM
Oc1ccc(C2(c3ccc(O)cc3)c3ccccc3-c3ccccc32)cc1 — G2 phase cells (HepG2 spheroids; Hoechst flow cytometry; 10 µM, 24 h): 20.6 ± 2.59%
C[C@H]1CN(c2n[nH]c3nc(N[C@H]4CC[C@H](NS(=O)(=O)CCC(F)(F)F)CC4)ncc23)CCO1 — remaining binding (Tubulin alpha-1A chain (Homo sapiens, UniProt Q71U36); Kinobeads competition, measured: TUBA1A; 0.032 µM, unit not given; relative to: vehicle): 1.02
Cn1cncc1C1=CN(c2ncnc3[nH]cnc23)CCS1 — CC50 (SK-MEL-2; melanoma cell line): 158000 nM
C[C@H]1[C@H](C)CC[C@]2(C(=O)O)CC[C@]3(C)C(=CC[C@@H]4[C@@]5(C)CC[C@H](O)C(C)(C)[C@@H]5CC[C@]43C)[C@H]12 — cell survival (MCF7; cell growth, MTT; 3.6 µg/mL, 48 h): 75.8 ± 0.31%
COc1cc(Nc2ncc(F)c(Nc3ccc4c(n3)NC(=O)C(C)(C)O4)n2)cc(OC)c1OC — IC50 (PTPN11 (Homo sapiens, UniProt Q06124); SHP-2): > 10000 nM
Oc1cc(O)cc(-c2cc3ccc(O)cc3o2)c1 — cell survival (MCF7; cell growth, MTT; 50 µg/mL, 48 h): 57.58 ± 0.42%
CN1CCN(S(=O)(=O)c2cc([N+](=O)[O-])ccc2N(CCOS(C)(=O)=O)CCOS(C)(=O)=O)CC1 — IC50 fold change (sample B B-ALL PDX cells; cell viability; ex vivo; 48 h, with: AKR1C3 inhibitor; relative to: with inhibitor over alone): 18.8
CC(C)=CCc1c(O)cc(O)cc1-c1cc2ccc(O)c(CC=C(C)C)c2o1 — cell survival (3T3; cell growth, MTT; 3.6 µg/mL, 48 h): 90.37 ± 0.52%
O=C1CCP(=S)(c2ccccc2)CC1 — early apoptotic cells (HaCaT; annexin V/PI flow cytometry; IC50, 72 h): 4.2%

For quick reference, copied from above:
CN1CCN(C2(CNC3CCN(c4cccc(-c5cc6cc(F)ccc6[nH]5)c4)CC3)CCC2)CC1 — GI50 (MDA-MB-435): 523 nM
